Published values gathered from unrelated publications.
Each line is one published result; not all experiments were run side by side.
Technique: steady-state kinetics
B1: enzyme I209A (Thermococcus kodakarensis, UniProt Q5JID5); chain MLYVEILGNLPEMARDEVKAMLELGGGEIIGQDYLFLKVDAGEKAFPFLDRLGLAHEYGLLLVEADSVEELLQKAGEVEWPIKGAFKVDTETMANCRHDVLDLPRKLGAVIHAQGFRVNLSKPDTVVRVYCGERLYAGIRLRYFDPKDFEKRKAHHRPFFRPISLHPRVSRALVNLTKATREILDPFMGAGGILIEAGLLGLRVYGVDARPEMVEGAETNLKHYGVRDYTLKLGDATRLEDLFPDKKFEAVATDPPYGTAATLAGRKRDELYRKALRSIYNVLEDGGRLAIAFPTDFNGKAEAEAVGFRTLGRYYQRVHKSLERYFYVFEK
B2: FMO3 V257M (Homo sapiens, UniProt P31513); chain GKKVAIIGAGVSGLASIRSCLEEGLEPTCFEKSNDIGGLWKFSDHAEEGRASIYKSVFSNSSKEMMCFPDFPFPDDFPNFMHNSKIQEYIIAFAKEKNLLKYIQFKTFVSSVNKHPDFATTGQWDVTTERDGKKESAVFDAVMVCSGHHVYPNLPKESFPGLNHFKGKCFHSRDYKEPGVFNGKRVLVVGLGNSGCDIATELSRTAEQVMISSRSGSWVMSRVWDNGYPWDMLLVTRFGTFLKNNLPTAISDWLYMKQMNARFKHENYGLMPLNGVLRKEPVFNDELPASILCGIVSVKPNVKEFTETSAIFEDGTIFEGIDCVIFATGYSFAYPFLDESIIKSRNNEIILFKGVFPPLLEKSTIAVIGFVQSLGAAIPTVDLQSRWAAQVIKGTCTLPSMEDMMNDINEKMEKKRKWFGKSETIQTDYIVYMDELSSFIGAKPNIPWLFLTDPKLAMEVYFGPCSPYQFRLVGPGQWPGARNAILTQWDRSLKPMQTRVVGRLQKPCFFFHWLKLFAIPILLIAVFLVLT
B3: UGT88A1 V18R (Arabidopsis thaliana, UniProt Q9LK73); chain MGEEAIVLYPAPPIGHLRSMVELGKTILSKNPSLSIHIILVPPPYQPESTATYISSVSSSFPSITFHHLPAVTPYSSSSTSRHHHESLLLEILCFSNPSVHRTLFSLSRNFNVRAMIIDFFCTAVLDITADFTFPVYFFYTSGAACLAFSFYLPTIDETTPGKNLKDIPTVHIPGVPPMKGSDMPKAVLERDDEVYDVFIMFGKQLSKSSGIIINTFDALENRAIKAITEELCFRNIYPIGPLIVNGRIEDRNDNKAVSCLNWLDSQPEKSVVFLCFGSLGLFSKEQVIEIAVGLEKSGQRFLWVVRNPPELEKTELDLKSLLPEGFLSRTEDKGMVVKSWAPQVPVLNHKAVGGFVTHCGWNSILEAVCAGVPMVAWPLYAEQRFNRVMIVDEIKIAISMNESETGFVSSTEVEKRVQEIIGECPVRERTMAMKNAAELALTETGSSHTALTTLLQSWSPK
B4: oxdC T165V (Bacillus subtilis, UniProt O34714); chain MKKQNDIPQPIRGDKGATVKIPRNIERDRQNPDMLVPPETDHGTVSNMKFSFSDTHNRLEKGGYAREVTVRELPISENLASVNMRLKPGAIRELHWHKEAEWAYMIYGSARVTIVDEKGRSFIDDVGEGDLWYFPSGLPHSIQALEEGAEFLLVFDDGSFSENSVFQLTDWLAHTPKEVIAANFGVTKEEISNLPGKEKYIFENQLPGSLKDDIVEGPNGEVPYPFTYRLLEQEPIESEGGKVYIADSTNFKVSKTIASALVTVEPGAMRELHWHPNTHEWQYYISGKARMTVFASDGHARTFNYQAGDVGYVPFAMGHYVENIGDEPLVFLEIFKDDHYADVSLNQWLAMLPETFVQAHLDLGKDFTDVLSKEKHPVVKKKCSK
B5: iodotyrosine deiodinase (Haliscomenobacter hydrossis, UniProt F4KU78); chain MKQKPAFIPYAGAQFEPEEMLSKSAEYYQFMDHRRTVREFSNRAIPLEVIENIVMTASTAPSGAHKQPWTFVVVSDPQIKAKIRQAAEKEEFESYNGRMSNEWLEDLQPFGTDWHKPFLEIAPYLIVVFRKAYDVLPDGTQRKNYYVQESVGIACGFLLAAIHQAGLVALTHTPSPMNFLQKILQRPENERPFLLVPVGYPAEGAMVPDLQRKDKAAVMVVY
B6: Alanine racemase (Geobacillus stearothermophilus, UniProt P10724); chain MNDFHRDTWAEVDLDAIYDNVENLRRLLPDDTHIMAVVKANAYGHGDVQVARTALEAGASRLAVAFLDEALALREKGIEAPILVLGASRPADAALAAQQRIALTVFRSDWLEEASALYSGPFPIHFHLKMDTGMGRLGVKDEEETKRIVALIERHPHFVLEGLYTHFATADEVNTDYFSYQYTRFLHMLEWLPSRPPLVHCANSAASLRFPDRTFNMVRFGIAMYGLAPSPGIKPLLPYPLKEAFSLHSRLVHVKKLQPGEKVSYGATYTAQTEEWIGTIPIGYADGWLRRLQHFHVLVDGQKAPIVGRICMDQCMIRLPGPLPVGTKVTLIGRQGDEVISIDDVARHLETINYEVPCTISYRVPRIFFRHKRIMEVRNAIGRGESSA
B7: nicotinamidase (Streptococcus pneumoniae, UniProt A0A0H2UR34); chain MTKALISIDYTEDFVADSGKLTAGAPAQAISDAISKVTRLAFERGDYIFFTIDAHEENDCFHPESKLFPPHNLIGTSGRNLYGDLGIFYQEHGSDSRVFWMDKRHYSAFSGTDLDIRLRERRVSTVILTGVLTDICVLHTAIDAYNLGYDIEIVKPAVASIWPENHQFALGHFKNTLGAKLVDENLNELFE
B8: LodA (Marinomonas mediterranea, UniProt F2JXJ3); chain MALSVHPSIGVARLGNANTDNFVLNPMEIGGLPYEHDVDLKPTTTVVNFKDEAGCIRRQGQVFKVFGASNEELTLDSPNVKNIEWTVHLANKKAAWYEFRELNGNLLYGRDNSYSARGVPWRNASKTASSERQSLIIDLGPRSVSGVMATVEISINNIPETYLHPSYPSGELLQGSKHFESLGTLRTDSQGRLIVLGGYGFAGGNTDLSGYGGGDDWYDDISDGSVTCVVTYSDDSSETSTAWMVVGSPDFAPEIVNISTLSDTCFDVGVRNFDLVPDMYDSATGHYKSDYVANFDRDILPIIQRISQYQWVSNVQSMSGFFSFQFDYRDGSAANKANRMKYYNYFRQLDNKVIGDYDQPQQVLMSSEVEGDILPLMPMNSGSNSVSSSNFYDLTDNVVEKFLALDATQLFLLGQWAEGEFTAGPADDYPVSDMDTASIGNCVGLPMCPGIEMTWSLQNPVIYKDAYQIKHYQDKAYFDVNGLTPERDECEEETGCEPGDLTKRMACPWQADFFNCTIQTVNFSEPSVNKASQTETVTSRTHYEWGNLPAGVSVPDQSSVSATKNVDEKVPLPPAYYSYWWPPQSPWDVLTGELDTEGQLHSHLPAGQQINYARGINSYSQMVEHWSALAFIRDRNQNNDGFPFFTETERNHELFDFKEVLVGQVTGNSEDNETSLPVFFINANKESLEGKGTKKGKLMASYFEERAFSKVRSSNIRPRSGTRMRG
B9: HARS1 Y330C (Homo sapiens, UniProt P12081); chain MAERAALEELVKLQGERVRGLKQQKASAELIEEEVAKLLKLKAQLGPDESKQKFVLKTPKGTRDYSPRQMAVREKVFDVIIRCFKRHGAEVIDTPVFELKETLMGKYGEDSKLIYDLKDQGGELLSLRYDLTVPFARYLAMNKLTNIKRYHIAKVYRRDNPAMTRGRYREFYQCDFDIAGNFDPMIPDAECLKIMCEILSSLQIGDFLVKVNDRRILDGMFAICGVSDSKFRTICSSVDKLDKVSWEEVKNEMVGEKGLAPEVADRIGDYVQQHGGVSLVEQLLQDPKLSQNKQALEGLGDLKLLFEYLTLFGIDDKISFDLSLARGLDCYTGVIYEAVLLQTPAQAGEEPLGVGSVAAGGRYDGLVGMFDPKGRKVPCVGLSIGVERIFSIVEQRLEALEEKIRTTETQVLVASAQKKLLEERLKLVSELWDAGIKAELLYKKNPKLLNQLQYCEEAGIPLVAIIGEQELKDGVIKLRSVTSREEVDVRREDLVEEIKRRTGQPLCIC
B10: enzyme (Bacillus pumilus, UniProt A8FFI9); chain EARSIAWSVDEFFKNREGTFVIQEVKEKSPWVYNKKRAKERFAPQSTFKVANALIGLQTGAVRDEYDIKYWDGVKREIDNWNRDHTLGSGMRDSVVWYYQAMARDIGEERMNHWVKAIHYGNKDISGGIDQFWLSSTLRISPIEQVRFLKQLYEETLPFDLKNMRTVKRMMVQEEEKHATLYGKTGSGSDIGWYVGFIKHEHKTYILATNIKGTGIEAKDITYRILKKYHLMEASV
B11: enzyme S124A (Arabidopsis thaliana, UniProt O82390); chain MNARALLCSSNIHSLYTSNRPPEKTSSSRSLRNLKPSPKSLRVWIYPRNRSSVFRVLVRSSDKSESSNSYYVEGDKVSGNNDVVSDSPSSIVLPWWEEFPKRWVIVLLCFSAFLLCNMDRVNMAIAILPMSAEYGWNPATVGLIQSSFFWGYLLTQIAGGIWADTVGGKRVLGFGVIWWSIATILTPVAAKLGLPYLLVVRAFMGVGEGVAMPAMNNILSKWVPVQERSRSLALVYSGMYLGSVTGLAFSPFLIHQFGWPSVFYSFGSLGTVWLTLWLTKAESSPLEDPTLLPEERKLIADNCASKEPVKSIPWRLILSKPPVWALISCHFCHNWGTFILLTWMPTYYHQVLKFNLMESGLLSVFPWMTMAISANAGGWIADTLVSRGFSVTNVRKIMQTIGFLGPAFFLTQLKHIDSPTMAVLCMACSQGTDAFSQSGLYSNHQDIAPRYSGVLLGLSNTAGVLAGVLGTAATGHILQHGSWDDVFTISVGLYLVGTVIWNLFSTGEKIID
B12: TcC (Trypanosoma cruzi, UniProt Q4DGA3); chain MPREYEFAEKILFTEEEIRTRIMEVAKRIADDYKGKGLRPYVNPLVLISVLKGSFMFTADLCRALSDFNVPVRMEFICVSSYGEGVTSSGQVRMLLDTRHSIEGHHVLIVEDIVDTALTLNYLYHMYFTRRPASLKTVVLLDKREGRRVPFSADYVVANIPNAFVIGYGLDYDDTYRELRDIVVLRPEVYAEREAARQKKQRAIGSADTDRDAKREFHSKY
B13: HCT R356E (Coleus scutellarioides, UniProt E8ZAP2); chain MKIHVRDSTLVRPSAATPAVSLWNSNVDLVVPNFHTPSVYFYRPSGADNFFDTAVMKAALGRALVSFYPMAGRLKRDEDGRVEIDCNAEGVLFVEAESDGTVDDYGDFAPSLELRRLIPAVDYSQGISAYPLLVLQVTFFKCGGVSLGVGMQHHAADGFSGLHFINTWSDMARGLDITLPPFIDRTLLSARDPPQPQFKHVEYQPPPAMKTYEPAETVVSIFKLTKDQLTTLKAKSKEDGNTTTYSSYEMLSGHVWRCTCLARGLPEEQETKLYIATDGRSRLQPQLPPGYFGNVIFTATPLAVAGDLGSKPVWYAASKIHDALARMDNDYLRSALDFLELQPDLKALVRGAHTFECPNLGITSWVRLPIHDADFGWGRPIFMGPGGIAYEGLSFVLPSPTNDGSLSVAISLQAEHMKLFEKLLYQI
Chain of UniProt P14780 (whole entry, looked up): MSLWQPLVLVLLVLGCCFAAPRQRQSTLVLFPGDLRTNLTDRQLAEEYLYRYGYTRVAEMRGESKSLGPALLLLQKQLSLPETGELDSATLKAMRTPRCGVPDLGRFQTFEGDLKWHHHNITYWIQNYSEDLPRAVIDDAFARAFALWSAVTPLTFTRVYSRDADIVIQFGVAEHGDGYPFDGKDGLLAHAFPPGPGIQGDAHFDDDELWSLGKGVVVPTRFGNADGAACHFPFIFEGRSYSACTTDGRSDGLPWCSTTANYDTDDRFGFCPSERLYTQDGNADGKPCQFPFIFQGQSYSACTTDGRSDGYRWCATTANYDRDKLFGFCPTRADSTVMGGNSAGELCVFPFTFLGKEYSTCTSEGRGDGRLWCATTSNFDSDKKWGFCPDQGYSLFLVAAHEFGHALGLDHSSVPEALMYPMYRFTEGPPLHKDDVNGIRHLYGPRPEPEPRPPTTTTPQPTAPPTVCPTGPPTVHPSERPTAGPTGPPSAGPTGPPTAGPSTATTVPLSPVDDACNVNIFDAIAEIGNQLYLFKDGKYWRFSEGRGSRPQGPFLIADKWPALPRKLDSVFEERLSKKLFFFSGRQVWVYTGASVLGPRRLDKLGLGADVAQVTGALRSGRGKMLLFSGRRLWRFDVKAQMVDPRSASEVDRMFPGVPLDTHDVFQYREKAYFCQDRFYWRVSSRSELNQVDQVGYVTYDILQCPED

Molecule	substrate	system	setting	Km
B1 (enzyme I209A)	C[S+](CC[C@H](N)C(=O)O)C[C@H]1O[C@@H](n2cnc3c(N)ncnc32)[C@H](O)[C@@H]1O		pH 7.5, 50 °C, apparent	23 µM
B2 (FMO3 V257M)	CN1CCC[C@H]1c1cccnc1	HEK293 microsomes	37 °C, not purified, added: NADPH regenerating system	1800 µM
B3 (UGT88A1 V18R)	O=c1c(O)c(-c2ccc(O)c(O)c2)oc2cc(O)cc(O)c12		pH 6.8, 37 °C, added: UDP-glucose	200 µM
B4 (oxdC T165V)	O=C(O)C(=O)O		pH 4.2, 25 °C	30000 µM
B5 (iodotyrosine deiodinase)	COc1cc(C[C@H](N)C(=O)O)cc(I)c1O		pH 7.4, 25 °C	30 µM
alanine aminopeptidase (Neisseria meningitidis, UniProt Q9JYV4)	C[C@H](N)C(=O)Nc1ccc2c(CC(N)=O)cc(=O)oc2c1		pH 7.5, 37 °C	175 µM
B6 (Alanine racemase)	C[C@@H](N)C(=O)O		pH 8.9, 25 °C, D to L direction	4000 µM
B7 (nicotinamidase)	NC(=O)c1cccnc1		pH 7.3, progress curve analysis	2.7 µM
Ptb (Listeria monocytogenes, UniProt Q8Y7B7)	CCC(=O)SCCNC(=O)CCNC(=O)[C@H](O)C(C)(C)COP(=O)(O)OP(=O)(O)OC[C@H]1O[C@@H](n2cnc3c(N)ncnc32)[C@H](O)[C@@H]1OP(=O)(O)O		pH 7.5, 25 °C, apparent	191 µM
B8 (LodA)	NCCCC[C@H](N)C(=O)O		pH 7.5, 25 °C, added: O2	3.2 µM
B9 (HARS1 Y330C)	Nc1ncnc2c1ncn2[C@@H]1O[C@H](COP(=O)(O)OP(=O)(O)OP(=O)(O)O)[C@@H](O)[C@H]1O		pH 7.5, saturation not reached, added: histidine, tRNAHis 5 µM, MgCl2 10 mM, KCl 150 mM	1760 µM
protein (Danio rerio, UniProt A0EXC5)	C[C@H](CCCC(CO)CO)[C@H]1CC[C@H]2[C@@H]3[C@H](O)C[C@@H]4C[C@H](O)CC[C@]4(C)[C@H]3C[C@H](O)[C@]12C		pH 7, 28 °C, substrate inhibition, added: PAPS 14 µM	7.15 µM
B10 (enzyme)	C[C@@H](O)[C@H]1C(=O)N2C(C(=O)O)=C(SCCN=CN)C[C@H]12		pH 7	6.6 µM
MMP9 (Homo sapiens, UniProt P14780)	CC(=O)N[C@@H](CCC(N)=O)C(=O)N1CCC[C@H]1C(=O)N[C@@H](CCC(N)=O)C(=O)NCC(=O)N[C@@H](CC(C)C)C(=O)N[C@@H](C)C(=O)N[C@@H](CCCCN)C(N)=O			1220 µM
B11 (enzyme S124A)	O=P(O)(O)O		pH 6.5, 25 °C, apparent, not purified	44.8 µM
B12 (TcC)	O=P(O)(O)OC[C@H]1O[C@H](OP(=O)(O)OP(=O)(O)O)[C@H](O)[C@@H]1O		pH 8.3, 37 °C, GMP biosynthesis, apparent, added: Gua 100 µM	33 µM
B13 (HCT R356E)	NCCc1ccc(O)c(O)c1		pH 8, pseudo-first-order, added: p-coumaroyl CoA	41600 µM
